Literature values that unrelated publications cite.
± marks the error that the study gave.
Sequence of UniProt Q8IVW4 (whole entry, looked up): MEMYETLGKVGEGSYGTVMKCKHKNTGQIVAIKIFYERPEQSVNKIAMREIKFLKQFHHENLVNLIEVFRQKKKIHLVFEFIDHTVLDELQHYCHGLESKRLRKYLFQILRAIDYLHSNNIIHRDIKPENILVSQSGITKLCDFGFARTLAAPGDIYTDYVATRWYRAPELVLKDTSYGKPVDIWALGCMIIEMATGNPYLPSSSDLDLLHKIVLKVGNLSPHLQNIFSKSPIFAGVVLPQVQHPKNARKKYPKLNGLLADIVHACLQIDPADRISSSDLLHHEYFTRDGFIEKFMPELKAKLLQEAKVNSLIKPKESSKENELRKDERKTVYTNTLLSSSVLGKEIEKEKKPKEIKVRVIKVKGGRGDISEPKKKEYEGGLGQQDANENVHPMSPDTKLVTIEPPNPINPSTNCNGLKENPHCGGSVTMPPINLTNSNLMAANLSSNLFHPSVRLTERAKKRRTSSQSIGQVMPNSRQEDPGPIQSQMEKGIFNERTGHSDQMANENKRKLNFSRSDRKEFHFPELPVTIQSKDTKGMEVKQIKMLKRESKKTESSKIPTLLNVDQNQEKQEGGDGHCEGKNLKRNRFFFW

CN[C@@H](C)C(=O)N[C@H]1CN(S(=O)(=O)c2cccc(S(=O)(=O)N3CC[C@H]4CC[C@@H](C(=O)NC(c5ccccc5)c5ccccc5)N4C(=O)[C@@H](NC(=O)[C@H](C)NC)C3)c2)CC[C@H]2CC[C@@H](C(=O)NC(c3ccccc3)c3ccccc3)N2C1=O
clearance (rat, plasma; dose not given): 58.3 mL/min/kg

CC1(C)CCC(CN2CCN(c3ccc(C(=O)NS(=O)(=O)c4ccc(NCC5CCOCC5)c([N+](=O)[O-])c4)c(Oc4cnc5[nH]ccc5c4)c3)CC2)=C(c2ccc(Cl)cc2)C1
apparent peripheral volume (V3/F) (legacy population PK model; human; dose not given): 119 L

O=C(c1cccnc1-c1ccncc1)N1CCC(O)(Cc2ccccc2)CC1
dose recovered (faeces; oral, 300 mg [14C]-labelled, single, time not given): 2.7%

Cc1cc(-c2nccc3c2ccn3CC(=O)Nc2ccc(-c3cnccn3)cn2)ccn1
dose with bone changes (rat; minimal to mild findings): ≥ 6 mg/kg/day

Cc1cn([C@@H]2C[C@@H](O)[C@H](CO)O2)c(=O)[nH]c1=O
oral bioavailability (woodchuck; dose not given): 39%

COc1cc2c(Oc3ccc4[nH]c(C)cc4c3F)ccnc2cc1OCC1(N)CC1
oral bioavailability (dog; oral): ~67%

C#Cc1cccc(Nc2ncnc3cc(OCCOC)c(OCCOC)cc23)c1
decrease in bioavailability (human; taken on empty stomach): 40%

COC(=O)N[C@H](C(=O)N1CCC[C@H]1c1nc(-c2ccc3c(c2)O[C@@H](c2ccccc2)n2c-3cc3cc(-c4c[nH]c([C@@H]5CCCN5C(=O)[C@@H](NC(=O)OC)C(C)C)n4)ccc32)c[nH]1)C(C)C
fraction of dose recovered in bile (bile duct-cannulated rats; oral, time not given): 8%

C=CC(=O)N1CCC([C@@H]2CCNc3c(C(N)=O)c(-c4ccc(Oc5ccccc5)cc4)nn32)CC1
AUC(0-8h) (human patients; oral, 40 mg once daily, day 1): 274 ± 140 ng·h/mL

O=C(O)CN1CCN(CC(=O)O)CCN(CC(=O)O)CCN(CC(=O)O)CC1
protonation constant (log) (pH-potentiometry, refers to: logK1H; 0.15 M NaClO4; 25 °C): 9.12

Nc1cc(C(F)(F)F)c(-c2nc(N3CCOCC3)nc(N3CCOCC3)n2)cn1
remaining activity (Cyclin-dependent kinase-like 3 (CDKL3, Homo sapiens, UniProt Q8IVW4); enzyme activity; 10 µM; relative to: untreated): 85%

CCCCC(C)C(=O)O (stereo not shown)
EC10 (pericardial and yolk oedema; zebrafish embryo; nominal concentration): 385 µM

CN(C)C(=O)c1cc2cnc(Nc3ccc(N4CCNCC4)cn3)nc2n1C1CCCC1
steady-state Cmax (human; 600 mg): 606 to 6170 ng/mL

CN1CC[C@@H](c2c(O)cc(O)c3c(=O)cc(-c4ccc(C(F)(F)F)cc4Cl)oc23)[C@@H]1CO
trough concentration (human; 200 mg daily, 14 days): > 1.5 µM

CCCCNC(=O)NS(=O)(=O)c1ccc(C)cc1
plasma clearance (rat): 0.454 mL/min/kg

Nc1ccn([C@@H]2CS[C@H](CO)O2)c(=O)n1
oral bioavailability (rat): 80%

CO[C@@H](C)Cn1c(=O)n(C)c2cnc3ccc(-c4cncc(C(C)(C)O)c4)cc3c21
patients with related adverse event (refers to: diarrhea; cancer patients; dose not given, monotherapy): 20.8%

Cc1ncc([N+](=O)[O-])n1CCO
CL (human): 1 mL/min/kg

C#C[C@]1(O)CC[C@H]2[C@@H]3CCc4cc(O)ccc4[C@H]3CC[C@@]21C
cumulative release (HCl fasted stomach medium; 1.0 h): 82%

CN(C)C(=N)N=C(N)N
rate constant k21 (patients with liver failure): 0.0104 min⁻¹

Cn1ncnc1[C@H]1c2n[nH]c(=O)c3cc(F)cc(c23)N[C@@H]1c1ccc(F)cc1
apparent central volume Vct/Ft (human; dose not given, monotherapy): 162 L

CCCC(CCC)C(=O)O
protective index (mouse; i.p., 6 Hz seizure test, 32 mA): 2.9

For quick reference, copied from above:
C#C[C@]1(O)CC[C@H]2[C@@H]3CCc4cc(O)ccc4[C@H]3CC[C@@]21C
cumulative release (HCl fasted stomach medium; 1.0 h): 82%
